Results from different studies.
A part holds a random share of what one study measured. Changes are numbered by the printed parent chain.

Series 1
Target: Prothrombin, mature alpha-thrombin (F2, Homo sapiens, UniProt P00734)
Method: aptamer microarray, sandwich
Form: DNA with 2'F-ANA
Medium: in vitro
Concentration: 200 nM
Notes: whole 15-mer aptamer, many near background
With: Cy3 exosite-II aptamer, 400 nM
Direction: higher = stronger binding
Strand: GGTTGGTGTGGTTGG
Modification	mean fluorescence intensity [a.u.]
2'F-ANA at 2 3 4 5 6 7 8 9 12 13 14	72.4
2'F-ANA at 2 3 5 8 10 11 14 15	52.3
2'F-ANA at 3 4 5 6 8 9 10 11 12 15	72.8
2'F-ANA at 1 2 3 4 9 10 11 12 14 15	115
2'F-ANA at 2 3 4 5 11 13 14	61.8
2'F-ANA at 1 2 5 7 8 11 13	53.2
2'F-ANA at 2 4 5 6 11	57.3
2'F-ANA at 2 3 6 8 9 10 11 12 14 15	230

Series 2
Target: CEP164, C-terminal peptide (human)
Method: DHFR complementation, deep sequencing
Medium: yeast
Notes: single substitutions, model-inferred values
Relative to: wild type
Direction: higher = weaker binding
Parent: PDZK1, PDZ domain 2 (human); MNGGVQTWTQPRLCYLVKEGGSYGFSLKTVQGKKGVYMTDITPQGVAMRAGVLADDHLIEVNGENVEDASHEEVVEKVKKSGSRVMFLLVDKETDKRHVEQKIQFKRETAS; partner HNRVKVYRF
Substitution	binding free energy change [kcal/mol]
N2T	-0.145
Q44V	0.311
D40E	0.181
M86V	-0.0609
K79G	0.924
V5M	-0.00744
T9P	-0.0565
L53K	-0.146

Single results of other studies
P1: PafA, mature enzyme, eGFP fusion (Elizabethkingia meningoseptica, UniProt Q9KJX5); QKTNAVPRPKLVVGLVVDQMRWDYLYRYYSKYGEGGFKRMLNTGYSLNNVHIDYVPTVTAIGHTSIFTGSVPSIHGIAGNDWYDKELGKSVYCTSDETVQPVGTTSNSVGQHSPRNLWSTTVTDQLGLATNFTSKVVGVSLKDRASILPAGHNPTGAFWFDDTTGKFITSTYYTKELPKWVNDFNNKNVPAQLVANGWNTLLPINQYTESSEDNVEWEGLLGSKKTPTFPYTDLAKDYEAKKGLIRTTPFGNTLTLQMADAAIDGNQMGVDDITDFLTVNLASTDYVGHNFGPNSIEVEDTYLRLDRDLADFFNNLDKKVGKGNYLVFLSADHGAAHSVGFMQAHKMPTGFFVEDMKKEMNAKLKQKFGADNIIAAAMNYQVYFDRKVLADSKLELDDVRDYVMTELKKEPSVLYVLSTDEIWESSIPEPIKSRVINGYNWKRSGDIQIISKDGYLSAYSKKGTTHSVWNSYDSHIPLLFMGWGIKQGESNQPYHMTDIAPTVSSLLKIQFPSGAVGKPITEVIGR
Molecule	target	assay	test system	conditions	scale	endpoint	result
PhoQ, residues 284 288 289 292 302 303 AMDMFI	PhoP, residues 12 14 15 18 19 YHFSH (Escherichia coli, UniProt P23836)	Sort-seq, refers to: YFP reporter	E. coli	PhoQ-PhoP variant library, with: 10 µM Mg2+	relative to: high Mg2+ state, higher = stronger signaling	fold induction	0.759
P1 G265A	vanadate, free oxyanion	microfluidic competitive inhibition	in vitro, cell-free expressed	not given, derived from inhibition constants, unchanged parent 676 nM	lower = stronger binding	oxyanion analog dissociation constant	692 nM

For quick reference, copied from above (series 2):
Substitution	binding free energy change [kcal/mol]
N2T	-0.145
Q44V	0.311
D40E	0.181
